Assay results of several laboratories.
Compare with care: the assays were run in different laboratories. ± gives the spread as reported. Converted amounts (≈) assume the structure as drawn.
Organism: Escherichia coli

SMILES	assay	test system	conditions	scale	measurement	result
C[C@@H](O)[C@H](NC(=O)c1ccc(C#Cc2ccc(CN3CCOCC3)cc2)cc1)C(=O)NO	microbial growth, broth dilution	–	clinical isolate	–	MIC90	0.25 µg/mL
C[C@]1(COC(=O)c2ccccc2O)[C@H](C(=O)O)N2C(=O)/C(=C/c3ccccn3)[C@H]2S1(=O)=O	broth microdilution	TG1 expressing DHA-1	16 µg/mL	–	MIC of ceftazidime	0.25 µg/mL
CC(=NNC(=N)N)c1nnn(-c2ccc(C#CC3(O)CCCCC3)cc2)c1C	microbial killing	ATCC25922	–	–	MBC	31.2 µg/mL (≈ 82.4 µM)
Cc1ccc2ccc3ccc(C)nc3c2n1.Cc1ccc2ccc3ccc(C)nc3c2n1.O.[Cl-].[Cl-].[Cl-].[Yb+3]	–	–	5 mg/mL	–	zone of inhibition	38 mm
COc1c2c(cc3oc(=O)cc(C)c13)C(=O)c1cc(C)cc(O)c1C2=O	–	MTCC 739	100 µg/disc	–	zone of inhibition	< 8 mm
CCN(CC)CCSc1nnc(C23CC4CC(CC(C4)C2)C3)n1C	–	IFO 3301	200 µg/disc, 24 h, 37 °C	–	inhibition zone diameter	< 10 mm
CO[C@H]1O[C@H](COC(c2ccccc2)(c2ccccc2)c2ccccc2)[C@@H](OS(=O)(=O)c2ccccc2)[C@H](OS(=O)(=O)c2ccccc2)[C@H]1OS(=O)(=O)c1ccccc1	–	–	concentration not given	–	inhibition zone diameter	12 ± 0.3 mm
CC(C)C[C@H](NC(=O)[C@@H](N)CCCNC(=N)N)C(=O)N[C@@H](Cc1ccc(O)cc1)C(=O)N[C@@H](CCCNC(=N)N)C(N)=O	bactericidal activity, virtual colony count	ATCC 25922	2 h	–	EC50	12.1 ± 1.03 µM
c1ccc(CN2CCOCCOCCN(CCCCCCCCCCCCN3CCOCCOCCN(CCCCCCCCCCCCN4CCOCCOCCN(Cc5ccccc5)CCOCCOCC4)CCOCCOCC3)CCOCCOCC2)cc1	K+ selective electrode	tetracycline-resistant	4 µM, 10 min	reference: total	potassium release	21%
N=C(N)NCCC[C@@H]1NC(=O)[C@H](CCCNC(=N)N)NC(=O)[C@H](CCCNC(=N)N)NC(=O)[C@H](Cc2ccc3ccccc3c2)NC(=O)[C@H](Cc2c[nH]c3ccccc23)NC(=O)[C@H](Cc2ccc3ccccc3c2)NC(=O)[C@H](CCCNC(=N)N)NC1=O	XTT	ATCC BAA-2452	MIC	–	biofilm mass reduction	40 to 45%
Cc1cc([N+](=O)[O-])ccc1NC(=O)CSc1nc2ccccc2c(=O)n1-c1ccc(S(N)(=O)=O)cc1	microbial killing	ATCC25 ATCC25922	24 h	–	MBC	2.5 µg/mL (≈ 4.76 µM)
C[C@]1(COC(=O)c2ccc(O)c(O)c2)[C@H](C(=O)O)N2C(=O)/C(=C/c3ccccn3)[C@H]2S1(=O)=O	broth microdilution	TG1 expressing DHA-1	16 µg/mL	–	MIC of ceftazidime	≤ 0.06 µg/mL
CC(=O)[O-].O.O.[O-]c1ccc(Br)cc1C=NCCN1CCOCC1.[Zn+2]	–	–	20 µL of 100 µM per disc	–	inhibition zone diameter	28 mm
c1ccc(CN2CCOCCOCCN(CCCCCCCCN3CCOCCOCCN(CCCCCCCCN4CCOCCOCCN(Cc5ccccc5)CCOCCOCC4)CCOCCOCC3)CCOCCOCC2)cc1	checkerboard	tetracycline-resistant	together with: tetracycline	–	concentration restoring tetracycline activity	8 µM
CCCCCCCCCCCCCCCC(=O)N[C@@H](CCN)C(=O)N[C@H](C(=O)N[C@@H](CCN)C(=O)N[C@H]1CCNC(=O)[C@H]([C@@H](C)O)NC(=O)[C@H](CCN)NC(=O)[C@H](CCN)NC(=O)[C@H](CC(C)C)NC(=O)[C@@H](CC(C)C)NC(=O)[C@H](CCN)NC1=O)[C@@H](C)O	–	–	6 µg/mL	–	biofilm eradication	> 80%
CC(C)C[C@@H]1NC(=O)[C@H](CCCCN)NC(=O)CNC(=O)[C@H]2CCCN2C(=O)[C@H](CCCCN)NC(=O)[C@H](CC(C)C)NC(=O)[C@H](CCCCN)NC(=O)[C@H](CC(C)C)NC(=O)[C@H](CCCCN)NC(=O)C(N)CCC=CCCC(C(N)=O)NC(=O)[C@H](CCCCN)NC(=O)[C@H](CC(C)C)NC(=O)[C@H](CCCCN)NC1=O (stereo partly drawn)	NPN uptake	ATCC 25922	1× MIC, 1 h, pH 7, 37 °C	reference: colistin	outer membrane permeabilization	~70%
NC(=O)[C@@H]1Cc2c([nH]c3ccccc23)[C@@H](c2ccc(Cl)cc2Cl)N1	–	BL21(DE3)	250 µM, 18 h	–	growth inhibition	0%
CCCCCCCCCCCC1N=C(N)N=C(N)N1c1ccc(Cl)cc1.Cl (racemic)	broth microdilution	ATCC 25922	together with: 7.4 mg/mL thymidine	–	MIC90	8 µM

SMILES	assay	test system	conditions	scale	measurement	result
CC(CCCOC(=O)CCC[N+](C)(C)C)C1CCC2C3CCC4CC(OC(=O)CCC[N+](C)(C)C)CCC4(C)C3CC(OC(=O)CCC[N+](C)(C)C)C12C (stereo not drawn)	outer membrane permeabilization, nitrocefin hydrolysis	–	90 min	–	permeabilizing concentration	≥ 15.6 µg/mL
CCCCCC1CC2CCCC3CC(C)N=C(N1)N32 (stereo not drawn)	bacterial growth	ATCC 35218	–	–	IC50	23.3 µM
CCOC(=O)C1=C(C)NC2=C(C(=O)CC(C)(C)C2)C1c1ccc(OCC(=O)NN=Cc2cccc([N+](=O)[O-])c2)cc1OCC(=O)NN=Cc1cccc([N+](=O)[O-])c1 (stereo not drawn)	–	ATCC 25922	concentration not given, 24 h, 37 °C	–	inhibition zone diameter	2.3 ± 0.3 mm
Fc1ccc2nc3c4cccnc4c4ncccc4c3nc2c1.[Cl-].[Cl-].[Ru+2].c1ccncc1.c1ccncc1.c1ccncc1.c1ccncc1	–	–	LED irradiation 470 nm	–	MIC90	16 µM
CC[C@H](C)[C@H](NC(=O)[C@H](CS)NC(=O)[C@@H](NC(=O)[C@@H]1CCCN1C(=O)[C@H](Cc1ccccc1)NC(=O)[C@H](CC(N)=O)NC(=O)[C@@H](NC(=O)[C@H](CC(=O)O)NC(=O)CCNC(=O)CNC(=O)O[C@H]1CC[C@@]2(C)C(=CC[C@H]3[C@@H]4CC[C@H]([C@H](C)CCCC(C)C)[C@@]4(C)CC[C@@H]32)C1)[C@@H](C)O)[C@@H](C)CC)C(=O)N[C@@H](Cc1ccccc1)C(N)=O	–	mouse, pulmonary macrophages	intratracheal, 25 nmol per mouse, 12 h	–	amphiregulin protein level	increased
CNC1=C([N+](=O)[O-])C2(C(=O)Nc3ccccc32)C2=C(CCCC2=O)O1 (stereo not drawn)	microbial growth	ATCC25922	250 µg/mL, 24 h	–	inhibition	50.4%
[Cl-].[Cl-].[Ru+2].c1ccc2nc3c4cccnc4c4ncccc4c3nc2c1.c1ccncc1.c1ccncc1.c1ccncc1.c1ccncc1	–	–	LED irradiation 470 nm	–	MIC90	16 µM
c1ccc(CN2CCOCCOCCN(CCCCCCCCCCN3CCOCCOCCN(CCCCCCCCCCN4CCOCCOCCN(Cc5ccccc5)CCOCCOCC4)CCOCCOCC3)CCOCCOCC2)cc1	checkerboard	tetracycline-resistant	together with: tetracycline	–	concentration restoring tetracycline activity	2 µM
O=[N+]([O-])c1ccc(CSc2nnc(C34CC5CC(CC(C5)C3)C4)n2-c2ccccc2)cc1	–	IFO 3301	200 µg/disc, 24 h, 37 °C	–	inhibition zone diameter	< 10 mm
c1ccc(CN2CCOCCOCCN(CCCCCCCCCCCCCCN3CCOCCOCCN(CCCCCCCCCCCCCCN4CCOCCOCCN(Cc5ccccc5)CCOCCOCC4)CCOCCOCC3)CCOCCOCC2)cc1	K+ selective electrode	tetracycline-resistant	10 µM	reference: total potassium	potassium release	> 80%
c1ccc(CSc2nnc(C34CC5CC(CC(C5)C3)C4)n2-c2ccccc2)cc1	–	IFO 3301	200 µg/disc, 24 h, 37 °C	–	inhibition zone diameter	< 10 mm
CC[C@H](C)[C@H](NC(=O)[C@H](CCCCN)NC(=O)[C@H](CC(N)=O)NC(=O)[C@H](Cc1c[nH]c2ccccc12)NC(=O)[C@H](Cc1ccccc1)NC(=O)[C@H](CCCCN)NC(=O)[C@H](CCCNC(=N)N)NC(=O)[C@H](CC(C)C)NC(=O)[C@H](Cc1c[nH]c2ccccc12)NC(=O)[C@H](CCCCN)NC(=O)[C@H](CCCNC(=N)N)NC(=O)[C@H](CC(C)C)NC(=O)CNC(C)=O)C(=O)N[C@@H](CCCCN)C(=O)N[C@@H](CCCNC(=N)N)C(N)=O	–	ATCC 25922	12 h, together with: plasma pretreatment	reference: MIC without plasma pretreatment	MIC fold increase	16 fold
CCCCCCCCCC1N=C(N)N=C(N)N1c1ccc(Cl)cc1.Cl (racemic)	broth microdilution	ATCC 25922	together with: 7.4 mg/mL thymidine	–	MIC90	64 µM
COc1ccc(/N=N/C(=S)N2CCCCC2)cc1	microbial growth	ATCC 8739, ATCC8739	24 h	–	IC50	> 50 µM
O=S(=O)(c1ccccc1)N(CCc1nnc(S)o1)c1ccc(Cl)cc1	cup plate method	–	100 µg/mL	reference: cotrimoxazole	relative inhibition	20.7%
Cc1cc(O)c2c(c1)C(=O)c1cc3oc(=O)cc(-c4ccccc4)c3c(O)c1C2=O	–	MTCC 739	100 µg/disc	–	inhibition zone diameter	12 mm
Cc1ccc(S(=O)(=O)N(CCc2nnc(S)o2)c2ccccc2)cc1	cup plate method	–	100 µg/mL	reference: cotrimoxazole	relative inhibition	20.7%
[Cl-].[Cl][Ru-4]123([n+]4ccccc4-c4cccc([n+]41)-c1cccc[n+]12)[n+]1ccc(-c2ccccc2)c2ccc4c(-c5ccccc5)cc[n+]3c4c21	bacterial cytological profiling	BL21(DE3)	MIC, 24 h	–	average filament length	39 µm
